Assay results pooled from the literature.
rep main protease: Replicase polyprotein 1ab, main protease (rep, Severe acute respiratory syndrome coronavirus 2, UniProt P0DTD1)

Molecule	tested on	assay	system	conditions	how to read	quantity	result
ASAFFGMSRIGMEVT	human CD4 T cells	AIM	peptide	–	–	responding donors	8%
CC[C@H](C)[C@H](NC(=O)[C@H](CC(C)C)NC(=O)[C@H](Cc1c[nH]c2ccccc12)NC(=O)[C@H](CCC(N)=O)NC(=O)[C@@H](NC(=O)[C@H](Cc1ccccc1)NC(=O)[C@H](C)NC(=O)[C@H](CCCCNC(=O)COCCOCCNC(=O)COCCOCCNC(=O)CC[C@H](NC(=O)CCCCCCCCCCCCCCCCCCC(=O)O)C(=O)O)NC(=O)[C@H](CCC(N)=O)NC(=O)[C@H](C)NC(=O)[C@@H](NC(=O)[C@H](CCCCN)NC(=O)[C@H](CC(=O)O)NC(=O)[C@H](CC(C)C)NC(=O)C(C)(C)NC(=O)[C@@H](NC(=O)[C@H](CO)NC(=O)[C@H](Cc1ccc(O)cc1)NC(=O)[C@H](CC(=O)O)NC(=O)[C@H](CO)NC(=O)[C@@H](NC(=O)[C@H](Cc1ccccc1)NC(=O)[C@@H](NC(=O)CNC(=O)[C@H](CCC(=O)O)NC(=O)C(C)(C)NC(=O)[C@@H](N)Cc1ccc(O)cc1)[C@@H](C)O)[C@@H](C)O)[C@@H](C)CC)[C@@H](C)CC)C(C)C)C(=O)N[C@@H](C)C(=O)NCC(=O)NCC(=O)N1CCC[C@H]1C(=O)N[C@@H](CO)C(=O)N[C@@H](CO)C(=O)NCC(=O)N[C@@H](C)C(=O)N1CCC[C@H]1C(=O)N1CCC[C@H]1C(=O)N1CCC[C@H]1C(=O)N[C@@H](CO)C(N)=O	–	–	patients with type 2 diabetes	0.5 mg, day 29, proof of concept, LS mean	baseline: baseline	diastolic blood pressure change	1.79 mmHg
Nc1ncnc2c([C@@H]3N[C@H](CO)[C@@H](O)[C@H]3O)c[nH]c12	Marburg virus	viral replication, antibody staining	HeLa, Musoke	100 µM, 12 h	–	infected cells	0.6%
C(#Cc1nc2ncccc2nc1OCCN1CCCC1)c1ccccc1	rep main protease	viral replication, mKate2 reporter	SARS-CoV-2	20 µM	–	inhibition	-1.43%
Cn1cnc(Cn2c(=O)[nH]/c(=N\c3cc4cn(C)nc4cc3Cl)n(Cc3cc(F)c(F)cc3F)c2=O)n1	–	–	human, severe renal impairment, plasma	oral, 375 mg single dose	–	AUC(0-inf)	1600 µg·h/mL
COC(=O)C[C@H](NC(=O)[C@H](C)NC(=O)[C@@H](NC(=O)OCc1ccccc1)C(C)C)C(=O)CF	rep main protease	reporter gene (mKate2), inhibitor	–	20 µM	–	inhibition	-0.475%
FTGYRVTKNSKVQIG	human CD4 T cells	AIM	peptide	–	–	responding donors	8%

Repeated from above:
Molecule	tested on	assay	system	conditions	how to read	quantity	result
ASAFFGMSRIGMEVT	human CD4 T cells	AIM	peptide	–	–	responding donors	8%
